Results from different studies.
A part holds a random share of what one study measured. Substitutions count along the parent as printed.

Set 1 — technique: RNA Bind-n-Seq; form: RNA; medium: in vitro; concentration: 200 nM; setting: whole 134-nt RNA, ends assumed; with: 150 mM KCl; baseline: input library; reading: higher = stronger binding; endpoint: log2 enrichment
Target: Fragile X messenger ribonucleoprotein 1, C-terminal low-complexity region (Fmr1, Mus musculus, UniProt P35922)
Shared flanks, not repeated: GGGAGUUCUACAGUCCGACGAUC … UGGAAUUCUCGGGUGUCAAGG
Oligonucleotide = CACAGACAACACGCACCCACACAGACACAGAGGGAAGGGGUUGGGAUGGGGACAGGGUGCACAGCAGGGCGGGGUAGGACCCCAGCUCCU; result = 1.22
Oligonucleotide = GUCCUGUGCUACACAUCGUAUGUACCGAAUCGGGAAAAAGGGUUUUUUUGGGUUUGGGAAAGUAUUAUGUUACGCCGUUCGGAUCUGCAC; result = -0.442
Oligonucleotide = UAACUUUAGAGGAGGAUCUGAUAGAUAUGGCAGUGGACGUGGAUUUGGGGAUGGCUAUAAUGGGUAUGGAGGAGGACCUGGAGGUGGCAA; result = 0.216
Oligonucleotide = UGUCGGGGCCAAAGUGGUAACGAACGCCCGCAGCCCGGGGGCUCGAUGCUAUGGAUUCGUCACCAUGUCGACAUCUGACGAGGCGACCAA; result = -2.38
Oligonucleotide = UGUGCUACACAUCGUAUGUACCGAAUCGGGGUUUUUUUGGGUUUUUUUGGGGUUUUUUUGGGGAAAGUAUUAUGUUACGCCGUUCGGAUC; result = 0.208
Oligonucleotide = GCAGGAAGUAAAAACAAAUGGAAAUGCUUCGGAUAGUGGCAGGGGUGGGGGUUGCUAAGGAAAGGAUGGGAUGGGAGUGGGUAAAGAGUU; result = 0.0875
Oligonucleotide = UGGGAGGUGGAUUUUGUUUAUUUUUUUAGCUCAUUUCCAGGGGUGGGGAUUUUUUUUUAAUAUGUGUCAUGAAUAAAGUUGUUUUUGAAA; result = 0.515
Oligonucleotide = CCUGUGCUACACAUCGUAUGUACCGAAUCGGGUUUUUUUGGUUUUUUUGGGGUUUUUUUGGAAAGUAUUAUGUUACGCCGUUCGGAUCUG; result = -0.877
Oligonucleotide = CAAGUCCUGUGCUACACAUCGUAUGUACCGAAUCGGGAGGGUGGGUUUUUUUGGGAAAGUAUUAUGUUACGCCGUUCGGAUCUGCACUUC; result = 0.97
Oligonucleotide = UAAUUUUAGAGGAGGAUCUGAUGGAUAUGGCAGUGGACGUGGAUUUGGGGAUGGCUAUAAUGGGUAUGGAGGAGGACCUGGAGGUGGCAA; result = 0.246

Set 2 — target: CCNB1, cyclin fold, Cln2 fusion (human); technique: yeast growth competition, sequencing; medium: yeast; setting: weak parent motif; baseline: not given; reading: higher = stronger binding; endpoint: normalised enrichment score
Starting sequence: RB1 docking peptide (human); PKPLKKLRFDIEG
Variant = L4P; result = 0.38
Variant = K2M; result = 0.344
Variant = P3A; result = 1.08
Variant = K5H; result = 0.708
Variant = I11T; result = -0.224
Variant = I11F; result = 0.894
Variant = P1K; result = 1.1
Variant = F9E; result = 0.000962
Variant = K2T; result = 0.105

Set 3 — technique: DHFR PCA, deep sequencing; medium: yeast; with: (+)-ABA 0 µM; baseline: wild-type fitted maximum; reading: higher = stronger binding; endpoint: relative binding score
Target: ABI1, truncated, D143A, DHFR fusion (Arabidopsis thaliana)
Setting: methotrexate growth selection, single substitutions
Starting sequence: PYL1, truncated, DHFR fusion (Arabidopsis thaliana); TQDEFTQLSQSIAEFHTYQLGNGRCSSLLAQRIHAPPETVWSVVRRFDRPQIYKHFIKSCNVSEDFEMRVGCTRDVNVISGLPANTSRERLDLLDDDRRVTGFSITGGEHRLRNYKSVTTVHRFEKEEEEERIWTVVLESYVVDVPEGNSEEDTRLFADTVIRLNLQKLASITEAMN
Variant = N61Q; result = 41.7%
Variant = Y141V; result = -1.25%
Variant = F56M; result = 2.99%
Variant = L166D; result = 3.54%
Variant = N165E; result = 8.13%
Variant = V121M; result = 3.53%
Variant = E174T; result = -0.695%
Variant = T1K; result = 20%

Other studies, line by line
Molecule = PhoQ, residues 284 288 289 292 302 303 NLMGRA; target = PhoP, residues 12 14 15 18 19 AWHSL (Escherichia coli, UniProt P23836); test = Sort-seq, refers to: YFP reporter; system = E. coli; setting = PhoQ-PhoP variant library, with: 10 µM Mg2+; scale = baseline: high Mg2+ state, higher = stronger signaling; endpoint = fold induction; result = 6

A few entries again (set 1):
Oligonucleotide = UGUCGGGGCCAAAGUGGUAACGAACGCCCGCAGCCCGGGGGCUCGAUGCUAUGGAUUCGUCACCAUGUCGACAUCUGACGAGGCGACCAA; result = -2.38
Oligonucleotide = GUCCUGUGCUACACAUCGUAUGUACCGAAUCGGGAAAAAGGGUUUUUUUGGGUUUGGGAAAGUAUUAUGUUACGCCGUUCGGAUCUGCAC; result = -0.442
